{"data": "Experimental data from different studies", "note": "Each numbered part is a random draw from the data of one study; scales do not carry over between parts. Substitutions count along the parent as printed."}
{"data": "Block 1", "target": "RING finger protein unkempt homolog, zinc fingers 1-6, GST-SBP tag (UNK, Homo sapiens, UniProt Q9C0B0, residues 30-357)", "method": "RNA Bind-n-Seq", "form": "RNA", "medium": "in vitro", "concentration": "not given", "notes": "RNA with constant flanks, human and mouse sites, ends assumed", "relative to": "input RNA pool", "direction": "higher = stronger binding", "shared flanks, not repeated": "GGGAGUUCUACAGUCCGACGAUC … CAACAGAGGAUUGAGCAUCA", "Residues (chain)": "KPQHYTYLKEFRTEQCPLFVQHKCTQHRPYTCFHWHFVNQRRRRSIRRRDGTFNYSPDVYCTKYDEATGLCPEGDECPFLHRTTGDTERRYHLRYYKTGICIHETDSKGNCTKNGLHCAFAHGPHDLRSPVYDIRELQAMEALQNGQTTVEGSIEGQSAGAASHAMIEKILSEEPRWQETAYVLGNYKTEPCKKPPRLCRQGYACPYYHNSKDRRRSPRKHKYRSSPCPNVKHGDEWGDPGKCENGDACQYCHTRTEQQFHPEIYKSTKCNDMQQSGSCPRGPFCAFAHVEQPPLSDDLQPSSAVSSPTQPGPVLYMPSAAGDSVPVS"}
{"Strand": "AUUUAAAAUUCCAGUAGUUAUAUUUAAUGAUCUCACCCCUGAGUUUCUUUUUCAUUAAAGUAGCUUUCAUUUCUAUUAUUCCAAUUUACUGAUAUGAACAAAUAGAAGGUCCGUGUGAGC", "bound/input enrichment [ratio]": 9.89}
{"Strand": "GGCAAGAUGCAUGCUUAUGAGAAGAUCCACCAGUGCUCUGAAUGUAACUUUGCCACUGCCCACAAAAGGGUGCUUAUCCGACACAUGCUGCUGCAUACUGGAGAGAAGCCUCACAAAUGU", "bound/input enrichment [ratio]": 0.108}
{"Strand": "CAUCCUCACUGUAAACAGUAAUGCUAUAUGCAUGAAGCUUCUGUUUAUUGUUUUCCAUAUUUAAGGAAACAACAUCCCAUAAUAGAAAUGAGCAUGCAGGGCUAAGGCAUAUAGGAUUUU", "bound/input enrichment [ratio]": 0.351}
{"Strand": "GAUGUUAGGGAUGUGGUUGGGCGACGUCUAGAUCCCAGAGAAGGCCCUGGAAGGCCUCCAUUAGAUGCUAGGGAUCAUUUUGGAAGACCUCCUGUGGACAUGAGGGAGAAUCUUGUGAGG", "bound/input enrichment [ratio]": 0.743}
{"Strand": "UAUACUGGGAUUGAUCAUCACUGGAAAGAAGCUGUUUUUGCCACAUGUGGACAGCAAGUAGACAUUUGGGAUGAACAAAGAACUAAUCCUAUAUGUUCAAUGACCUGGGGAUUUGACAGU", "bound/input enrichment [ratio]": 0.0928}
{"Strand": "AUAAGCUGCACUAGGUAUUCACAAAUGGAUCCAAGAUAAAAUCAUUUUUCUGAAACUUUUUUUAGUGAGAUGGUUUUCCAGCAAAUAGCAUUUACAAGAUAAAGUGAUUAUGUUUUUAAC", "bound/input enrichment [ratio]": 4.61}
{"Strand": "GCCCGGAAAACUGUGAAAAAAAUACUUAGUGACAUUGGGUUGGAAUACUGUAAAGAACAUAUAGAAGAUUUUAAACAGUUUGAACCUAAUGACUUUUAUUUGAAAAACACUACAUGGGAG", "bound/input enrichment [ratio]": 0.532}
{"data": "Block 2", "target": "CCNF, cyclin fold, Cln2 fusion (human)", "method": "yeast growth competition, sequencing", "medium": "yeast", "notes": "strong parent motif", "relative to": "not given", "direction": "higher = stronger binding", "starting sequence": "INSM1 docking peptide (human); PKAIRKLHFEDEV"}
{"Variant": "PKAIRKIHFEDEV [L7I]", "normalised enrichment score": 3.68}
{"Variant": "PKAIRKLHFENEV [D11N]", "normalised enrichment score": 7.75}
{"Variant": "PKAIVKLHFEDEV [R5V]", "normalised enrichment score": 0.876}
{"Variant": "PKIIRKLHFEDEV [A3I]", "normalised enrichment score": 7.04}
{"data": "Block 3", "target": "Ras GTPase-activating protein-binding protein 1, C-terminal RGG region (G3BP1, Homo sapiens, UniProt Q13283)", "method": "RNA Bind-n-Seq", "form": "RNA", "medium": "in vitro", "concentration": "1 µM", "notes": "whole 134-nt RNA, ends assumed", "added": "150 mM KCl", "relative to": "input library", "direction": "higher = stronger binding", "shared flanks, not repeated": "GGGAGUUCUACAGUCCGACGAUC … UGGAAUUCUCGGGUGUCAAGG", "sequence of UniProt Q13283 (whole entry, looked up)": "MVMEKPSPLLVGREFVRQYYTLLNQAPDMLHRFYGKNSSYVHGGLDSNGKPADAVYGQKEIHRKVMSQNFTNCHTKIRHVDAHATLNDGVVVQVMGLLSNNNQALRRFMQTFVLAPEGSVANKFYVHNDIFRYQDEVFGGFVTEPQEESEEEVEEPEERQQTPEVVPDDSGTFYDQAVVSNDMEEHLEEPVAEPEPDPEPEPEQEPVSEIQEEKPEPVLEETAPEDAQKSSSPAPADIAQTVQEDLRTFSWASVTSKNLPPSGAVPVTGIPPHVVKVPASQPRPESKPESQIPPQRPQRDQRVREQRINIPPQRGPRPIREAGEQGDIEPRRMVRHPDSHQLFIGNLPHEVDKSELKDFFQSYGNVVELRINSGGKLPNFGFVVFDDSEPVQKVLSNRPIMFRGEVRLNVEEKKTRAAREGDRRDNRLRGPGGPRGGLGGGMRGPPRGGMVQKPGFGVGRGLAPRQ"}
{"Strand": "UUUAAGAGCAGCCAGGGAGAUAGUGGCGUUGACUUGAGUGCCGAGUCUCGGGAGUCGUCUGCGACCUCCUCGCAGCGCAGCUCCCCAUAU", "log2 enrichment": 0.664}
{"Strand": "CACAGACAACAAACACCCACACAGACACAGAGGGAAGGGGUUGGGAUGGGGACAGGGUGCACAGCAGGGCGGGGUAGGACCCCAGCCCCU", "log2 enrichment": -0.501}
{"Strand": "UCAUCCUUUUUAAAUUUUUUUUUUUUUUUUGAGACGGUCUCACUCUCACCCAGGCUGGAUUGCAGUGGUGUGAUCUCGACCAACUGCAAC", "log2 enrichment": -1.57}
{"Strand": "GCAGGAAGUAAAGACAAAUGGAAAUGCUUCGGAUAGUGGCAGGGGUGGGGGUUGCUAAGGAAAGGGUGGGAUGGGAGUGGGUAAAGAGUU", "log2 enrichment": 3.02}
{"Strand": "ACCAUGCAGGUGGGCAUCUUUGGGAAGUCGGGCAAGGGGGGGAUAGGGAGGGGGGUAACACUUUGGGAACAGGUGGUCCCAGGUCGUUUC", "log2 enrichment": -1.14}
{"Strand": "GCAGGAAGUAAAAACAAAUGGAAAUGCUUCGGAUAGUGGCAGGGGUGGGGGUUGCUAACGAAAGGGUGGGAUGGGAGUGGGUAAAGAGUU", "log2 enrichment": 1.72}
{"Strand": "CCUGUGCUACACAUCGUAUGUACCGAAUCGGGGUUUUUUUGGGGAAAGGGGUUUUUGGGGAAAGUAUUAUGUUACGCCGUUCGGAUCUGC", "log2 enrichment": 0.75}
{"data": "Further values, each from its own experiment"}
{"Molecule": "PhoQ, residues 284 288 289 292 302 303 SLCLSL", "target": "PhoP, residues 12 14 15 18 19 STHWV (Escherichia coli, UniProt P23836)", "assay": "Sort-seq, item: YFP reporter", "system": "E. coli", "conditions": "PhoQ-PhoP variant library, added: 10 µM Mg2+", "how to read": "relative to: high Mg2+ state, higher = stronger signaling", "quantity": "fold induction", "value": 4.17}
{"note": "For quick reference, copied from above (block 1):"}
{"Strand": "AUAAGCUGCACUAGGUAUUCACAAAUGGAUCCAAGAUAAAAUCAUUUUUCUGAAACUUUUUUUAGUGAGAUGGUUUUCCAGCAAAUAGCAUUUACAAGAUAAAGUGAUUAUGUUUUUAAC", "bound/input enrichment [ratio]": 4.61}
{"Strand": "UAUACUGGGAUUGAUCAUCACUGGAAAGAAGCUGUUUUUGCCACAUGUGGACAGCAAGUAGACAUUUGGGAUGAACAAAGAACUAAUCCUAUAUGUUCAAUGACCUGGGGAUUUGACAGU", "bound/input enrichment [ratio]": 0.0928}
